{"data": "Results gathered from unrelated publications", "note": "Compare with care: the assays were run in different laboratories."}
{"Compound": "CC(N)C12CC3CC(CC(C3)C1)C2 (stereo not drawn)", "target or system": "human iPSC-derived cardiomyocytes", "test": "MyBP-C/MYH ratio, plate-normalised SD score", "conditions": "concentration not given, primary screen", "scale": "direction not given", "measurement": "activity score", "value": -4.5}
{"Compound": "CC(Nc1nc(N2CCCC2)nc2ccccc12)c1ccccc1 (stereo not drawn)", "target or system": "transportin-1/2", "test": "FUS nuclear import, high content imaging", "test system": "HeLa Kyoto reporter", "conditions": "0.0158 µM, 2 h", "measurement": "cells with nuclear reporter", "value": "93.3%"}
{"Compound": "Oc1ccccc1-c1n[nH]cc1-c1ccnc2ccccc12", "target or system": "SHA3 (Candida albicans)", "test": "kinase binding, MIB/MS competition", "test system": "Candida albicans lysate", "conditions": "1 µM", "scale": "baseline: DMSO", "measurement": "log2 fold change", "value": -0.02}
{"Compound": "N#Cc1ccc2c(c1)[C@H]1CCCN(C(=O)c3ccc4[nH]cnc4c3)[C@H]1C2", "test system": "human clinical trial", "conditions": "oral, 240 mg once daily", "measurement": "ACTH change from baseline", "value": "6.2 pmol/L"}
{"Compound": "COc1ccc(-c2cc(=O)c3c(O)c(OC)c(OC)c(OC)c3o2)cc1", "target or system": "human iPSC-derived cardiomyocytes", "test": "MyBP-C/MYH ratio, plate-normalised SD score", "conditions": "concentration not given, primary screen", "scale": "direction not given", "measurement": "activity score", "value": 3.8}
{"Compound": "Cn1cc(-c2ccc(-c3cncc(Cl)c3N3CCC4(CCNC4=O)CC3)cc2)cn1", "target or system": "COLO 205", "test": "gene expression, microarray, measured: INHBB mRNA", "conditions": "concentration not given, 2 h", "scale": "baseline: untreated cells", "measurement": "log2 fold change", "value": 2.08}
{"Compound": "C[C@H]1C[C@H]2CSC(N)=N[C@@]2(c2nc(NC(=O)c3ccc(OC(F)F)cn3)cs2)CO1", "test": "measured: Aβx-40", "test system": "healthy adults, plasma", "conditions": "3 mg single dose, 8 h post-dose", "scale": "baseline: placebo", "measurement": "percent change from baseline", "value": "-39.8%"}
{"Compound": "Cc1nnc(NS(=O)(=O)c2ccc(N)cc2)s1", "target or system": "human iPSC-derived cardiomyocytes", "test": "MyBP-C/MYH ratio, plate-normalised SD score", "conditions": "concentration not given, primary screen", "scale": "direction not given", "measurement": "activity score", "value": 3.6}
{"Compound": "c1coc(-c2n[nH]cc2-c2ccnc3ccccc23)c1", "target or system": "TPK1 (Candida albicans)", "test": "kinase binding, MIB/MS competition", "test system": "Candida albicans lysate", "conditions": "1 µM", "scale": "baseline: DMSO", "measurement": "log2 fold change", "value": -0.2}
{"note": "Some of these lines once more:"}
{"Compound": "Oc1ccccc1-c1n[nH]cc1-c1ccnc2ccccc12", "target or system": "SHA3 (Candida albicans)", "test": "kinase binding, MIB/MS competition", "test system": "Candida albicans lysate", "conditions": "1 µM", "scale": "baseline: DMSO", "measurement": "log2 fold change", "value": -0.02}
